Published values gathered from unrelated publications.
Each line is one published result; not all experiments were run side by side. ± marks the error that the study gave. Where no end group is shown, it is not given here.
MAL12: Alpha-glucosidase MAL12 (MAL12, Saccharomyces cerevisiae S288c, UniProt P53341)
Sequence of UniProt P53341 (whole entry, looked up): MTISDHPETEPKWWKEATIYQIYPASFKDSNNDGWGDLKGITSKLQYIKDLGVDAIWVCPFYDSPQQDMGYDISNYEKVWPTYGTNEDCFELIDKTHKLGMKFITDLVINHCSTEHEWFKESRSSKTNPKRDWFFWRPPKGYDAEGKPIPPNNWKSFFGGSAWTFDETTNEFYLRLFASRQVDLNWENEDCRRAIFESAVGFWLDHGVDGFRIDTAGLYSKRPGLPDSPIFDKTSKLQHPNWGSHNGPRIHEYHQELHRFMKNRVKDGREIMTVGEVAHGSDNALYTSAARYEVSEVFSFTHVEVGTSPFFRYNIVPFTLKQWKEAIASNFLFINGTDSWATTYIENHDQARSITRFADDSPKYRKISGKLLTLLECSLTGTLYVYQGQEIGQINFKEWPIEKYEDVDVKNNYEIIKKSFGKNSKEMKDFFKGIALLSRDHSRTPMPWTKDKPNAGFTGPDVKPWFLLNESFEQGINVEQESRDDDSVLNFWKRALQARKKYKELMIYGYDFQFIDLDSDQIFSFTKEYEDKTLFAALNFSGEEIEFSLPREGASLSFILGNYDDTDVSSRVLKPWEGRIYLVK
SLC22A5: Organic cation/carnitine transporter 2 (SLC22A5, Homo sapiens, UniProt O76082)
Sequence of UniProt O76082 (whole entry, looked up): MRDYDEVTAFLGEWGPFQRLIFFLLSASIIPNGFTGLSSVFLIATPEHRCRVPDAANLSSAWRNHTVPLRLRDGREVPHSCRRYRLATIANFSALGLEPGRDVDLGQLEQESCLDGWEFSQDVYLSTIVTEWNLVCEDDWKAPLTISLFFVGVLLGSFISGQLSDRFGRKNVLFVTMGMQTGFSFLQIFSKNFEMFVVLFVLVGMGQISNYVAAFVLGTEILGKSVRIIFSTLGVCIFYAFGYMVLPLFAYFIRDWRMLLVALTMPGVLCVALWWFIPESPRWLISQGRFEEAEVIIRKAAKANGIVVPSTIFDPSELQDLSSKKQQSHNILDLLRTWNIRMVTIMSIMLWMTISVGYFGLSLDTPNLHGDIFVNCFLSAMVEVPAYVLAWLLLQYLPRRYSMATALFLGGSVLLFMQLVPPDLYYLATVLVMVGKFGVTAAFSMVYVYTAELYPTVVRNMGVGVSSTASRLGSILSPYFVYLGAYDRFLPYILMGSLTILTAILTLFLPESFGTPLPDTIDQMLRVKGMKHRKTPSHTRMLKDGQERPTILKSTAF
WWOX WW1-WW2 tandem domains: WW domain-containing oxidoreductase, WW1-WW2 tandem domains (WWOX, Homo sapiens, UniProt Q9NZC7)
Sequence of UniProt Q9NZC7 (whole entry, unmodified, looked up): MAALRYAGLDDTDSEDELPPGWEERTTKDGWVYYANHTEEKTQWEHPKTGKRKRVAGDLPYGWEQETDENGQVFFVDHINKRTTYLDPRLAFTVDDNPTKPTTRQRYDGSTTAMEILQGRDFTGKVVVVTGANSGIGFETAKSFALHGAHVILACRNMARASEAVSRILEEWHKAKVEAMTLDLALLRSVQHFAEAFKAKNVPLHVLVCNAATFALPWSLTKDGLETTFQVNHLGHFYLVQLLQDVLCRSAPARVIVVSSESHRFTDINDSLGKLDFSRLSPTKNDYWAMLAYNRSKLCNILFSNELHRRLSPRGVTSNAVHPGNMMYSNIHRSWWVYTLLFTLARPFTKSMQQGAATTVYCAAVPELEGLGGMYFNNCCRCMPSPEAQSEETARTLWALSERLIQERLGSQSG
B1: disulfide; chain GLIHQYCQGYWRHVPPSPREAPGAPRSPEPDQKKPRNRRHHPPDT (disulfide (positions not given here))
Sequence of UniProt P0DMV8 (whole entry, looked up): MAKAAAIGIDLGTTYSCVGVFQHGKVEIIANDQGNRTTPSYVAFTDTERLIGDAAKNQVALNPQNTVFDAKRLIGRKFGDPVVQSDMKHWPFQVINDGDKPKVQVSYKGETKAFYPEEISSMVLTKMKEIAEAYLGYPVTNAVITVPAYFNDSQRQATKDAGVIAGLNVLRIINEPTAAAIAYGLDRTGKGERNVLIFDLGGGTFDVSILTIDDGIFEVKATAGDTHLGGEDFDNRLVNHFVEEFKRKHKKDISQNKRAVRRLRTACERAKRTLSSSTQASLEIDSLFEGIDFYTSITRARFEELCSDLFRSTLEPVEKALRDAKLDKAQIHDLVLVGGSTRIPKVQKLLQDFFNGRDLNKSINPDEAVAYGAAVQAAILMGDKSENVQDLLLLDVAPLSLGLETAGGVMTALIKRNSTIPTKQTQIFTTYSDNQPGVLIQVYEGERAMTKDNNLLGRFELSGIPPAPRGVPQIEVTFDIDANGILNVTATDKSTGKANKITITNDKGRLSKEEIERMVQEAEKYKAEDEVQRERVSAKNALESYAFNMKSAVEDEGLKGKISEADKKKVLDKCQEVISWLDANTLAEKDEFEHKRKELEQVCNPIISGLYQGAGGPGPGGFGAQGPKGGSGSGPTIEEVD
Sequence of UniProt P69905 (whole entry, looked up): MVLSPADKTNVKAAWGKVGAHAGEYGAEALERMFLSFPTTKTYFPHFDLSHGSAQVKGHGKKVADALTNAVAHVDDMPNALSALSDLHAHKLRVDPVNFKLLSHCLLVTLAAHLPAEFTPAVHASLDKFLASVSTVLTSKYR
Sequence of UniProt P28867 (whole entry, looked up): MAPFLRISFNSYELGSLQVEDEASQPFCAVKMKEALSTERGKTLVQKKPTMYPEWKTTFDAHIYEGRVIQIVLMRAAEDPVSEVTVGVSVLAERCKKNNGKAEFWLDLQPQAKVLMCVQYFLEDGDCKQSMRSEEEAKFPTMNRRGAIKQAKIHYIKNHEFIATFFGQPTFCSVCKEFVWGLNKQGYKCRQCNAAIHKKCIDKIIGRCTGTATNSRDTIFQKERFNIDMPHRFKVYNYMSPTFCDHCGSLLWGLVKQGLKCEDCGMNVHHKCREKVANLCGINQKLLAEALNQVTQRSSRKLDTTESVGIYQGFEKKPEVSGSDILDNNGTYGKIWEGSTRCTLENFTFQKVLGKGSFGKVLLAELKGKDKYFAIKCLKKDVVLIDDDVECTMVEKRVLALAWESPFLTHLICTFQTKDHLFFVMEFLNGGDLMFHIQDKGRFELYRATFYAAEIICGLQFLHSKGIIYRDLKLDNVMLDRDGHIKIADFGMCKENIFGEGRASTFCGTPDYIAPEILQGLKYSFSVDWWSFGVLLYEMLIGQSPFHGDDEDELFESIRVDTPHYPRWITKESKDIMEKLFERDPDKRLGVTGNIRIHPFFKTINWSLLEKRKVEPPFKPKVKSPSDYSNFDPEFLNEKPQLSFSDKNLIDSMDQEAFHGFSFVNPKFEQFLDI
Sequence of UniProt P14925 (whole entry, looked up): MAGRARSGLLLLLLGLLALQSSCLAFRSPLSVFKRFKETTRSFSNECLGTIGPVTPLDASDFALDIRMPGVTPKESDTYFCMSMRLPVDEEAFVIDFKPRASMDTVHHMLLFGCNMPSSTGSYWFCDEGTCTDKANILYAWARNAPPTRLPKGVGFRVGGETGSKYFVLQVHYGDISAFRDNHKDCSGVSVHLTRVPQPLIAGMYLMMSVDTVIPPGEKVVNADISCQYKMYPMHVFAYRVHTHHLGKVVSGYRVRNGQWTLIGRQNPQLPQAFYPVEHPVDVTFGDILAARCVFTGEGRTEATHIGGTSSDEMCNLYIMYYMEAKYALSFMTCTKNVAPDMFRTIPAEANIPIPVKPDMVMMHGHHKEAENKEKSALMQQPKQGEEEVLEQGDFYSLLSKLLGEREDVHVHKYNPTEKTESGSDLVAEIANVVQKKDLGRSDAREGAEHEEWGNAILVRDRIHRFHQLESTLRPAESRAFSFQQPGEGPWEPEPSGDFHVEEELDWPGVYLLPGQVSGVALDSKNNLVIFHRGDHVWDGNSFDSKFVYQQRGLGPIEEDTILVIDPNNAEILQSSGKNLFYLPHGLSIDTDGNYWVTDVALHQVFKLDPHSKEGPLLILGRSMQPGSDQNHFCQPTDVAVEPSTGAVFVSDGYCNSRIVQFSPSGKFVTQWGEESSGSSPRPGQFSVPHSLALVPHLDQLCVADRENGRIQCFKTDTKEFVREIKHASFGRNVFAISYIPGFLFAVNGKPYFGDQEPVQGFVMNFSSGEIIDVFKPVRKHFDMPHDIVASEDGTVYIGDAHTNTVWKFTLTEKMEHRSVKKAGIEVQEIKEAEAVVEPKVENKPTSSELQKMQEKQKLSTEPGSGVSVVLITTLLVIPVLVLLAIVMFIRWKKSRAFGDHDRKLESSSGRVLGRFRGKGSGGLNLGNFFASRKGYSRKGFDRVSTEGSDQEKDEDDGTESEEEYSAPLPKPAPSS
Sequence of UniProt P42224 (whole entry, looked up): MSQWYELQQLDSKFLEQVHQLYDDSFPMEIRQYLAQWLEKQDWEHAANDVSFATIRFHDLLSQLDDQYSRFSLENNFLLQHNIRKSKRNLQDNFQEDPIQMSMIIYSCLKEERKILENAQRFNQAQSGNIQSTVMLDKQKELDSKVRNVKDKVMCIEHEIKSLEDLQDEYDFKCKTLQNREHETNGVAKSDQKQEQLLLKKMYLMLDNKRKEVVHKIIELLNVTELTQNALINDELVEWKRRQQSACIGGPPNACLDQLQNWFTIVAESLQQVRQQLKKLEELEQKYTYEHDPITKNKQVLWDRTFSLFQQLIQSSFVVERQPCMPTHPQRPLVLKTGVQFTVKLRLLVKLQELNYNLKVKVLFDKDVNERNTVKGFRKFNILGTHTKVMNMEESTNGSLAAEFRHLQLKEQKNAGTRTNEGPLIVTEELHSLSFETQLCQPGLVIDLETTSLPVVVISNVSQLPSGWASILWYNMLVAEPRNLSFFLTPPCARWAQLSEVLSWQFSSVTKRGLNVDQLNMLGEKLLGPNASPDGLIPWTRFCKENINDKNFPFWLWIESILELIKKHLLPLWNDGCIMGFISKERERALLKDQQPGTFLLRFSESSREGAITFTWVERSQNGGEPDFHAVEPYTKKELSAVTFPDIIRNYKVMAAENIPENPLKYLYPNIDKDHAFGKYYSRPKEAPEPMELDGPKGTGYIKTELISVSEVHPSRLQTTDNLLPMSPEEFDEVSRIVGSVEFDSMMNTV

The activity ratio of `C[C@H]1CN(C(=O)Nc2ccc(C(F)(F)F)cc2)CCN1c1ccnc(Nc2ccc(Cl)cc2)n1` is reported as ~3 fold (MAL12; enzyme activity, inhibitor; Saccharomyces cerevisiae; added: p-nitrophenyl glucoside substrate; relative to: S over R enantiomer).
With `COc1c(O)ccc2c(=O)cc(-c3ccccc3)oc12` the inhibition was < 1% (MAL12; enzyme activity, inhibitor; 10 µM, added: p-nitrophenyl α-D-glucopyranoside).
For `O=Cc1ccc(COc2ccccc2[N+](=O)[O-])o1`, the P50 change was 13.4 ± 5.7% (Hemoglobin subunit alpha, with sickle beta chain (HBA1, Homo sapiens, UniProt P69905); oxygen affinity; sickle red cell lysate; 2000 µM; relative to: untreated).
`KKLTVWI` has a remaining aggregation of 61 ± 7% (Alpha-synuclein (SNCA, Homo sapiens, UniProt P37840); fibril formation, thioflavin T fluorescence; peptide; 2 molar equivalents, 16 h, 37 °C, 1.5 % HFIP, added: α-synuclein 100 µM; relative to: untreated).
`COc1ccc(OCc2ccccn2)c(C=O)c1` — result for “association rate constant kon”: 5 mM⁻¹ h⁻¹ (Hemoglobin subunit alpha, with beta chain (HBA1, Homo sapiens, UniProt P69905); binding, cation-exchange HPLC-UV/Vis; 37 °C).
With `C=CC(=O)Nc1ccccc1Nc1nc(Nc2ccc(N3CCN(C)CC3)cc2)ncc1Cl` the labelling was > 50% (YES1 (Homo sapiens, UniProt P07947); probe binding, inhibitor, chemoproteomic competition; NCI-H23 KRAS G12C; 10 nM, 2 h, added: 2 µM desthiobiotin probe).
For `Nc1ccc(C=CC(=O)O)cc1`, the kinact was 0.0005 ± 8.33e-05 s⁻¹ (Peptidylglycine alpha-amidating monooxygenase, PHM domain (Pam, Rattus norvegicus, UniProt P14925); inactivator; pH 6.0, 37 °C, added: 5.0 mM ascorbate).
`C[N+](C)(C)C[C@@H](O)CC(=O)[O-]` has an inhibition of 73.3% (SLC22A5; transporter uptake, inhibitor; 50 µM).
`COc1ccc(OCC2c3cc(OC)c(OC)cc3CCN2C(=O)c2cccc(Cl)c2)cc1` (stereo not drawn) — result for “channel opening frequency”: 303 ± 57 Hz (Glutamate receptor ionotropic, NMDA 2D, with NR1 (Rattus norvegicus, UniProt Q62645); outside-out patch clamp; 10 µM, added: GluN1 co-expressed).
`O=C(O)c1ccc2ccccc2n1`: “UV signal reduction” 50.2 ± 0.8% (PY04617 (Plasmodium yoelii, UniProt Q7RFT5); ultrafiltration HPLC-UV; 0.1 mM, pH 7.25, 4 °C, 6.5% DMSO, added: methionine competitor).
For `CC[C@H](C)[C@H](NC(=O)[C@@H]1CCCN1C(=O)[C@@H]1CCCN1C(=O)[C@@H]1CCCN1C(=O)[C@@H](NC(=O)[C@H](CC(N)=O)NC(=O)[C@@H](N)Cc1ccccc1)[C@@H](C)CC)C(=O)N[C@@H](Cc1ccc(O)cc1)C(=O)N[C@H](C(=O)N[C@@H](CO)C(=O)N[C@@H](CCCNC(=N)N)C(=O)N[C@@H](C)C(=O)O)[C@@H](C)O`, the TΔS was -2.1 ± 0.92 kcal/mol (WWOX WW1-WW2 tandem domains; binding, ITC; pH 7.0, 25 °C).
The emission maximum of `COc1cc(/C=C/C(=O)CC(=O)/C=C/c2ccc(O)c(OC)c2)ccc1O` is reported as 559 nm (Protein kinase C delta type, C1B domain (Prkcd, Mus musculus, UniProt P28867); buffer; 5×1 µM, 1 h, 25 °C, protein excess).
`CC(C)C[C@H](NC(=O)[C@@H](NC(=O)[C@@H](N)[C@@H](C)O)C(C)C)C(=O)N1CCC[C@H]1C(=O)N1CCC[C@H]1C(=O)N1CCC[C@H]1C(=O)N1CCC[C@H]1C(=O)N[C@@H](Cc1ccc(O)cc1)C(=O)N[C@@H](CCCNC(=N)N)C(=O)N[C@@H](Cc1c[nH]cn1)C(=O)N[C@@H](CCCNC(=N)N)C(=O)N[C@@H](CC(N)=O)C(=O)O` has a ΔG of -5.25 ± 0.06 kcal/mol (WW domain-containing oxidoreductase, WW1 domain (WWOX, Homo sapiens, UniProt Q9NZC7); binding, ITC; pH 7.0, 25 °C).
`B1` — result for “sedimentation coefficient, free ligand”: 1.26 S (Neuropilin-2 (NRP2, Homo sapiens, UniProt O60462); sedimentation velocity AUC; 2.5-fold molar excess, pH 7.5, 4 °C, 8 µM b1b2 domain).
`CC(=O)c1cccc2c1C(=O)c1cccc(O)c1C2=O`: “binding reduction ratio” 4.7 fold (Signal transducer and activator of transcription 1-alpha/beta, phosphorylated (STAT1, Homo sapiens, UniProt P42224); DNA binding, inhibitor, TIRF-PBM; 20 µM, added: 50 nM STAT1; relative to: high-affinity sites over half sites).
With `COc1ccc2c(=O)c(OC)c(-c3ccccc3)oc2c1` the inhibition was 11.5% (MAL12; enzyme activity, inhibitor, absorbance; 25 µM).
For `O=S1(=O)c2ccc(F)cc2Oc2cc(OCC(F)(F)F)ccc21`, the inhibition difference was 53.8% (MAOA (Homo sapiens, UniProt P21397); [11C]clorgyline PET; human; oral, 80 mg vs 20 mg, 2 h).
With `COc1ccccc1CNCCCCCCNCCCCCCCCNCCCCCCNCc1ccccc1OC` the liposome-bound oligomers was 0% (Alpha-synuclein, oligomers (SNCA, Homo sapiens, UniProt P37840); oligomer-vesicle binding, FIDA; 5 µM, added: 150 nM oligomers, 50 µM DOPG liposomes).
For `CC(=C\C(=O)O)/C=C(\C)C[C@H](C)CCCC[C@H]1OC(=O)[C@@H]1CO`, the KI (inactivation) was 700 nM (mvaS (Enterococcus faecalis, UniProt Q9FD71); enzyme activity, inhibitor, absorbance).
With `CSCC[C@H](NC(=O)[C@@H]1CCCN1C(=O)[C@@H](NC(=O)[C@H](Cc1ccc(O)cc1)NC(=O)[C@H](C)NC(=O)[C@@H]1CCCN1C(=O)[C@@H]1CCCN1C(=O)[C@@H]1CCCN1C(=O)[C@H](CO)NC(=O)[C@H](Cc1c[nH]cn1)NC(=O)CN)[C@@H](C)O)C(=O)N[C@@H](CO)C(=O)O` the ΔG was -5.13 ± 0.05 kcal/mol (WWOX WW1-WW2 tandem domains; binding, ITC; pH 7.0, 25 °C).
`KACESRCTKLEYDPR` — result for “patients with IgE binding”: 50% (human IgE; peptide microarray; peptide, peanut/walnut-allergic patient sera; concentration not given, 16 h, 4 °C).
For `C=CC(C)=CCC=C(C)C`, “remaining 1-NPN fluorescence” read > 100% (chemosensory protein 3 (Chilo suppressalis, UniProt V9PY40); binding, competitive ligand, fluorescence competitive binding; highest concentration tested, pH 7.4, protein 2 µM, added: 1-NPN 2 µM; relative to: no ligand).
With `CC[C@]1(O)C[C@H]2CN(CCc3c([nH]c4ccccc34)[C@@](C(=O)OC)(c3cc4c(cc3OC)N(C=O)[C@H]3[C@@](O)(C(=O)OC)[C@H](OC(C)=O)[C@]5(CC)C=CCN6CC[C@]43[C@@H]65)C2)C1` the inhibition was 95.1% (SLC22A5; transporter uptake, inhibitor; 500 µM).
`CC1=C(C(=O)OCc2ccccc2)C(c2ccc(-c3ccccc3C)cc2)NC(=O)N1CCCCCc1nnn[nH]1` (stereo not drawn) — result for “fold change in activity”: -3 fold (Heat shock 70 kDa protein 1A, with Hdj2 (HSPA1A, Homo sapiens, UniProt P0DMV8); ATPase activity, inhibitor; 100 µM, Hsp40-stimulated activity, added: Hdj2 Hsp70:Hsp40 1:0.5; relative to: DMSO, negative means inhibition).
For `COc1cc2oc(-c3ccccc3)cc(=O)c2c(OC)c1O`, the inhibition was < 1% (MAL12; enzyme activity, inhibitor; 10 µM, added: p-nitrophenyl α-D-glucopyranoside).
`O=c1n(CCCN2CCN(c3cccc(Cl)c3)CC2)nc2ccccn12` gave a Ki of 15.4 µM (OPRM1 (Homo sapiens, UniProt P35372); binding, radioligand competition; recombinant cells; extrapolated, unreliable).
The inhibition of `COc1cc2c(=O)c(OC)c(-c3ccccc3)oc2c(O)c1OC` is reported as 96.8% (MAL12; enzyme activity, inhibitor, absorbance; 100 µM).
For `DDLKQKACESRCTKL`, “patients with IgE binding” read 0% (human IgE; peptide microarray; peptide, walnut-allergic patient sera; concentration not given, 16 h, 4 °C).
The minimal effect of `NC(=O)NCc1ccc(CNC(=O)[C@@H](CCCN=C(N)N)NC(=O)C(c2ccccc2)c2ccccc2)cc1` is reported as 2.9 ± 3.3% (Neuropeptide Y receptor type 1 (Mus musculus, UniProt Q04573); antagonist; mouse, dorsal horn sections; 2 µM, added: [Leu31,Pro34]NPY; relative to: agonist alone).
For `CC1=C(C(=O)OCc2ccccc2)C(c2ccc(-c3ccccc3)cc2)NC(=O)N1CCCCCc1nnn[nH]1` (stereo not drawn), “fold change in activity” read -1.2 fold (HSPA1A (Homo sapiens, UniProt P0DMV8); ATPase activity, inhibitor; 100 µM, without Hsp40; relative to: DMSO, negative means inhibition).
For `CC(=O)N[C@H](Cc1ccc(I)cc1)C(=O)N[C@H](Cc1ccc2ccccc2c1)C(=O)N[C@H](Cc1ccc2ccccc2c1)C(=O)N[C@H](CCCCN)C(N)=O`, the Emax was 35% (Mc1r (Mus musculus, UniProt Q01727); cAMP, agonist, AlphaScreen; HEK293).
For `S=C(NC1CCCCC1)N1CCC(c2c[nH]cn2)CC1`, the pKB was 8.26 ± 0.1 (HRH3 (Homo sapiens, UniProt Q9Y5N1); imetit-stimulated Eu-GTP binding, antagonist, time-resolved fluorescence; membranes; added: imetit).
`COc1ccc(CNC(=O)c2ccc3c(c2)C(=O)c2ccccc2C3=O)cc1`: AC50 “inactive” (DRD2 (Homo sapiens, UniProt P14416); calcium mobilization, antagonist; HEK293 T-REx D2 Gqi5; up to 77 µM).

Repeated from above:
For `O=S1(=O)c2ccc(F)cc2Oc2cc(OCC(F)(F)F)ccc21`, the inhibition difference was 53.8% (MAOA (Homo sapiens, UniProt P21397); [11C]clorgyline PET; human; oral, 80 mg vs 20 mg, 2 h).
With `COc1ccccc1CNCCCCCCNCCCCCCCCNCCCCCCNCc1ccccc1OC` the liposome-bound oligomers was 0% (Alpha-synuclein, oligomers (SNCA, Homo sapiens, UniProt P37840); oligomer-vesicle binding, FIDA; 5 µM, added: 150 nM oligomers, 50 µM DOPG liposomes).
For `CC(=C\C(=O)O)/C=C(\C)C[C@H](C)CCCC[C@H]1OC(=O)[C@@H]1CO`, the KI (inactivation) was 700 nM (mvaS (Enterococcus faecalis, UniProt Q9FD71); enzyme activity, inhibitor, absorbance).
With `CSCC[C@H](NC(=O)[C@@H]1CCCN1C(=O)[C@@H](NC(=O)[C@H](Cc1ccc(O)cc1)NC(=O)[C@H](C)NC(=O)[C@@H]1CCCN1C(=O)[C@@H]1CCCN1C(=O)[C@@H]1CCCN1C(=O)[C@H](CO)NC(=O)[C@H](Cc1c[nH]cn1)NC(=O)CN)[C@@H](C)O)C(=O)N[C@@H](CO)C(=O)O` the ΔG was -5.13 ± 0.05 kcal/mol (WWOX WW1-WW2 tandem domains; binding, ITC; pH 7.0, 25 °C).
`KACESRCTKLEYDPR` — result for “patients with IgE binding”: 50% (human IgE; peptide microarray; peptide, peanut/walnut-allergic patient sera; concentration not given, 16 h, 4 °C).
